Results collected from several papers.
Protocols differ between the studies behind these lines. Several values in a cell are separate wells, animals, samples, runs or records. ± marks the error that the study gave.
Maoa: Amine oxidase [flavin-containing] A (Maoa, Rattus norvegicus, UniProt P21396)
FFAR4: Free fatty acid receptor 4 (FFAR4, Homo sapiens, UniProt Q5NUL3)
GAP50: Glideosome-associated protein 50 (GAP50, Plasmodium falciparum, UniProt Q8I2X3)
NADH dehydrogenase [ubiquinone] iron-sulfur protein 7, mitochondrial/NADH dehydrogenase [ubiquinone] iron-sulfur protein 2, mitochondrial/MT-ND1: NADH dehydrogenase [ubiquinone] iron-sulfur protein 7, mitochondrial/NADH dehydrogenase [ubiquinone] iron-sulfur protein 2, mitochondrial/MT-ND1 (Homo sapiens, UniProt O75251+O75306+P03886)
TRPM8: Transient receptor potential cation channel subfamily M member 8 (TRPM8, Homo sapiens, UniProt Q7Z2W7)

`O=C(CCCc1ccccc1)C(=O)NCCc1ccc(Oc2ccc(C(F)(F)F)cn2)cc1`: “probe-enriched protein abundance” 308000 a.u. (Lipe (Mus musculus, UniProt P54310); inhibitor, measured: LIPS; mouse, WAT cytosol proteome; 10 µM; relative to: DMSO, lower = stronger inhibition).
For `NCc1ccc(Br)cc1`, the kcat was 1.03 ± 0.0167 s⁻¹ (Maoa; substrate; pH 7.5, 25 °C, α,α-protio substrate).
`O=c1cc(NCCCCCCO)[nH]c(=O)[nH]1` has an activation of 1% (FFAR4; agonist, β-arrestin recruitment; CHO cells; 10 µM).
For `COc1ccc(C(=O)NCc2ccc(CNS(=O)(=O)c3ccc(C)cc3)cc2)cc1`, the EC was 100 nM (C-X-C chemokine receptor type 4 (CXCR4, Homo sapiens, UniProt P61073); binding, inhibitor, competitive binding; MDA-MB-231; with: biotinylated TN14003).
For `O=c1cc(NCCc2ccc(Cl)cc2Cl)[nH]c(=O)[nH]1`, the agonist effect was 1 ± 1% (FFAR4; agonist, β-arrestin recruitment; CHO cells; 10 µM; relative to: 30 µM TUG-891).
`N#Cc1ccsc1NC(=O)COc1cccc(Cl)c1Cl` has an Emax of under 10% (Kir3.1/Kir3.2 (Homo sapiens, UniProt P48051+P48549); thallium flux, activator; HEK293; relative to: standard compound).
With `C[C@@H](O)[C@@H](CO)NC(=O)[C@@H](CCCNC(=N)N)NC(=O)[C@@H]1CCCN1C(=O)[C@@H]1CSSC[C@H](NC(=O)[C@H](Cc2ccccc2)NC(=O)CN2CCN(CC(=O)O)CCN(CC(=O)O)CCN(CC(=O)O)CC2)C(=O)N[C@@H](Cc2ccc(O)cc2)C(=O)N[C@@H](Cc2ccccc2)C(=O)N[C@@H](CCC(N)=O)C(=O)N[C@@H](CC(N)=O)C(=O)N1` [gallium-68 labelled] the binding was 21.8% (Vasopressin V1b receptor (AVPR1B, Homo sapiens, UniProt P47901); radioreceptor binding; concentration not given, V1b receptor 31.25 nM, with: tracer 0.3 µM).
For `COc1ccc(/C=C2\OC(=O)c3c2cc(C)[nH]c3=O)cc1`, the ligand efficiency was 0.31 (Dual specificity calcium/calmodulin-dependent 3',5'-cyclic nucleotide phosphodiesterase 1C, isoform PDE1C2 (PDE1C, Homo sapiens, UniProt Q14123); enzyme activity, inhibitor; with: 3H-cGMP substrate).
`O=C(O)C1CCCNC1` (stereo not drawn) — result for “normalised MST signal”: 0.0335 (Sodium- and chloride-dependent taurine transporter (SLC6A6, Homo sapiens, UniProt P31641, G62A); binding, microscale thermophoresis; 31.3 µM, room temperature, with: 50 nM labelled protein; higher = more binding).
The koff of `CC(=O)Nc1ccc(-c2noc(C[C@H]3CCCN(Cc4cccc(F)c4C)C3)n2)cc1` is reported as 0.826 s⁻¹ (GAP50; binding, surface plasmon resonance; 1:1 binding model).
The enthalpy change of `OC[C@H]1OC(O)[C@H](O)[C@@H](O)[C@@H]1O` (stereo partly drawn) is reported as -20.3 ± 0.3 kcal/mol (Hexokinase-3 (HK3, Homo sapiens, UniProt P52790); isothermal titration calorimetry; concentration not given, 25 °C).
For `COc1c(Nc2cc(C(F)(F)F)cc(C(F)(F)F)c2)c(=O)c1=O`, the Hill slope was 2.8 (CD209 antigen (CD209, Homo sapiens, UniProt Q9NNX6); binding, grating-coupled interferometry; Man(α1,2)Man-PEG3 chip).
`NC(=O)NOCCCCCCCCCC[P+](c1ccccc1)(c1ccccc1)c1ccccc1.O=C([O-])C(F)(F)F` — result for “oxygen consumption rate”: 84.2 ± 7.55% (NADH dehydrogenase [ubiquinone] iron-sulfur protein 7, mitochondrial/NADH dehydrogenase [ubiquinone] iron-sulfur protein 2, mitochondrial/MT-ND1; complex I-dependent respiration, Seahorse XF96; HCT-116; 5 µM, 24 h; relative to: control).
`O=c1cc(NCc2cccc3ccccc23)[nH]c(=O)[nH]1` has an inhibition of 5 ± 16% (FFAR4; antagonist, β-arrestin recruitment; CHO cells; 10 µM, with: 4 µM TUG-891).
For `CCOc1ccc2c(C(F)(F)F)cc(=O)oc2c1`, “catalytic efficiency ratio” read 11 fold (Cytochrome P450 2B4 (Oryctolagus cuniculus, UniProt P00178, F206A/H226Y); O-deethylation, substrate; relative to: wild type over F206A).
The activation of `CCN1CCN(c2cc(N3CCN(CC)CC3)nc(NCCNc3ccnc4cc(Cl)ccc34)n2)CC1` is reported as 1.45 fold (Nuclear receptor subfamily 4 group A member 2 (Homo sapiens, UniProt P43354); reporter gene, full-length homodimer NurRE reporter; 20 µM; relative to: vehicle).
`Cc1ccc(C(=O)Nc2ccc(S(=O)(=O)O)c3cc(S(=O)(=O)O)cc(S(=O)(=O)O)c23)cc1NC(=O)c1cccc(NC(=O)Nc2cccc(C(=O)Nc3cc(C(=O)Nc4ccc(S(=O)(=O)O)c5cc(S(=O)(=O)O)cc(S(=O)(=O)O)c45)ccc3C)c2)c1` has a kon of 1010 M⁻¹ s⁻¹ (GAP50; binding, surface plasmon resonance; 1:1 binding model).
With `c1ccc(C(NCc2cccnc2)(c2ccccc2)c2ccccc2)cc1` the activation delay was 0.6 ± 0.16 s (Potassium voltage-gated channel subfamily KQT member 1, with KCNE1 (KCNQ1, Homo sapiens, UniProt P51787); IKs; 300 pM, with KCNE1).
Under “kcat of deuterated substrate”, `NCc1ccc(C(F)(F)F)cc1` is recorded as 0.667 ± 0.0117 s⁻¹ (Maoa; substrate; pH 7.5, 25 °C).
Under “oxygen consumption rate”, `NC(=O)NOCCCCCCCCCCCC[P+](c1ccccc1)(c1ccccc1)c1ccccc1.O=C([O-])C(F)(F)F` is recorded as 1.51 ± 1.74% (NADH dehydrogenase [ubiquinone] iron-sulfur protein 7, mitochondrial/NADH dehydrogenase [ubiquinone] iron-sulfur protein 2, mitochondrial/MT-ND1; complex I-dependent respiration, Seahorse XF96; HCT-116; 4 µM, 24 h; relative to: control).
The linear DNA of `O=c1nc(SCc2cc(F)cc(C(F)(F)F)c2)nc(SCc2ccc3nc(OCCN4CCOCC4)ccc3c2)[nH]1` is reported as 0% (DNA topoisomerase 2-alpha (TOP2A, Homo sapiens, UniProt P11388); DNA cleavage; 15.6 µM, replicate 1).
The activation of `O=c1cc(NCCCCCCCO)[nH]c(=O)[nH]1` is reported as 0% (FFAR4; agonist, β-arrestin recruitment; CHO cells; 10 µM).
For `Oc1cccc(-c2nc(N3CCOCC3)c3oc4ncccc4c3n2)c1`, the remaining activity was 112 ± 10.3% (TRPM8; antagonist; HEK293; 5 µM; relative to: control).
The remaining binding of `C=CC(=O)N1CCC(COCC(=O)N2CCN(c3nc(-c4cnc(N)nc4C(F)F)nc(N4CCOC[C@@H]4C)n3)CC2)CC1` is reported as 93% (Serine/threonine-protein kinase WNK3 (WNK3, Homo sapiens, UniProt Q9BYP7); KINOMEscan; 1 µM).
`CCCC[C@H](NC(=O)[C@H](C)c1c(C)[nH]c2ccc(O)cc12)c1ncc(-c2cc3ccccc3nc2OC)[nH]1` has a Hill coefficient of 1.1 (Alpha-1B adrenergic receptor (Adra1b, Rattus norvegicus, UniProt P15823); rat).
With `O=c1cc(N2CCC(c3ccccc3)CC2)[nH]c(=O)[nH]1` the inhibition was -12 ± 6% (FFAR4; antagonist, β-arrestin recruitment; CHO cells; 10 µM, with: 4 µM TUG-891).
The remaining activity of `O=c1[nH][nH]c2nnc(-c3c(-c4ccccc4)nn4ccccc34)cc12` is reported as 97.3 ± 10.1% (TRPM8; antagonist; HEK293; 5 µM; relative to: control).
`CCOc1nc2cccc(C(=O)O)c2n1Cc1ccc(-c2ccccc2-c2nnn[nH]2)cc1` gave a koff of 119 ± 2 s⁻¹ (Neutrophil gelatinase-associated lipocalin (LCN2, Homo sapiens, UniProt P80188, C107S); NMR line shape analysis; three-state model, state 1).
For `CC[C@H](C)[C@H](NC(=O)[C@H](CO)NC(=O)[C@@H](N)CC(=O)O)C(=O)N[C@@H](CCCNC(=N)N)C(=O)NCC(=O)N[C@@H](Cc1ccccc1)C(=O)N[C@@H](CC(C)C)C(=O)N[C@H](C(=O)N[C@@H](CCCNC(=N)N)C(=O)N1CCC[C@H]1C(=O)N[C@H](C(=O)N[C@@H](CCCNC(=N)N)C(=O)N[C@H](C(=O)N[C@H](C(=O)N[C@@H](Cc1c[nH]cn1)C(=O)N[C@@H](Cc1ccc(O)cc1)C(=O)N[C@@H](Cc1ccc(O)cc1)C(=O)N[C@@H](Cc1c[nH]c2ccccc12)C(=O)N[C@@H](CCCNC(=N)N)C(=O)N[C@@H](CCC(N)=O)C(=O)N[C@@H](Cc1ccccc1)C(=O)N[C@@H](CC(=O)O)C(=O)N[C@@H](CC(=O)O)C(=O)N[C@@H](CO)C(=O)N[C@@H](Cc1ccccc1)C(=O)N[C@@H](CCSC)C(=O)N[C@@H](CCCNC(=N)N)C(=O)N1CCC[C@H]1C(=O)N[C@H](C(=O)N[C@@H](Cc1ccccc1)C(=O)NCC(=O)NCC(=O)N[C@@H](CCCNC(=N)N)C(=O)O)C(C)C)C(C)C)[C@@H](C)O)[C@@H](C)O)[C@@H](C)O`, “binding enthalpy (ΔH1)” read -6.26 ± 0.355 kcal/mol (Probable calcium-binding protein CML18 (CML18, Arabidopsis thaliana, UniProt Q9M8U1); isothermal titration calorimetry; concentration not given, pH 6.3, 25 °C, with: 180 µM Ca2+).
Under “LDL lipid peroxidation”, `CC(C)OCCn1c(=S)[nH]c(=O)c2[nH]ccc21` is recorded as 134% and 103% and 97.3% and 91.2% (Myeloperoxidase (MPO, Homo sapiens, UniProt P05164); inhibitor, cholesteryl ester hydroperoxide; 0.0137 µM; relative to: control).
For `Cc1cnc(CCNC(=O)c2cc(-c3ccc(Cl)cc3)cs2)[nH]1`, the kon was 12400 M⁻¹ s⁻¹ (GAP50; binding, surface plasmon resonance; 1:1 binding model).
With `CC(C)(C)c1nc2c3cc[nH]c(=O)c3c3cc(F)ccc3c2[nH]1` the remaining activity was 84.8 ± 6.73% (TRPM8; antagonist; HEK293; 5 µM; relative to: control).
For `CCN1CCC[C@H]1CNC(=O)c1c(O)c(Cl)cc(Cl)c1OC`, “log2 fold change” read -0.188 (Probable G-protein coupled receptor 132 (GPR132, Homo sapiens, UniProt Q9UNW8); β-arrestin recruitment, TANGO luminescence; concentration not given; relative to: basal luminescence).
